Measured values gathered from unrelated publications.
A part holds a random share of what one study measured.

Sample 1
Organism: SARS-CoV-2 Wuhan spike VSV pseudovirus
Effect on: pseudovirus entry
Tested at: 10 µM
Endpoint: inhibition
Structure (SMILES) = O=C(OCc1cc(Cl)cc2c1OCOC2)c1ccc2c(c1)S(=O)(=O)N=C1CCCCCN12; result = 100%
Structure (SMILES) = Cc1ccc(C)c(N2CCN(C(=O)CCCn3cnc4cc(S(=O)(=O)N(C)C)ccc43)CC2)c1; result = 74%
Structure (SMILES) = COCc1noc([C@@H]2CC(F)(F)CN2C(=O)c2cc(C)n[nH]2)n1; result = 83%
Structure (SMILES) = O=C(c1cccc(N2CCCN(Cc3ccccc3)C2=O)c1)N1CCN(c2cccc(Cl)c2)CC1; result = 69%
Structure (SMILES) = CC(C)N(Cc1ccccc1)C(=O)Cn1ncc(Br)c(Br)c1=O; result = 100%
Structure (SMILES) = O=C(CC1CC1)N1CC(F)(F)C[C@H]1c1nc(-c2cccnc2)no1; result = 72%

Single results of other studies
rep nsp12 RdRp: Replicase polyprotein 1ab, nsp12 RdRp (rep, Severe acute respiratory syndrome coronavirus 2, UniProt P0DTD1)
rep nsp14: Replicase polyprotein 1ab, nsp14 (rep, Severe acute respiratory syndrome coronavirus 2, UniProt P0DTD1)
rep papain-like protease: Replicase polyprotein 1ab, papain-like protease (rep, Severe acute respiratory syndrome coronavirus 2, UniProt P0DTD1)
SMILES = COc1ccc2c(c1)C(=O)N(CCc1ccc(S(=O)(=O)NC(=O)NC3CCCCC3)cc1)C(=O)C2(C)C; target = rep nsp12 RdRp; test = binding, biolayer interferometry; setting = concentration not given; endpoint = BLI response; result = 0.01 nm
SMILES = Cc1ccc(NS(=O)(=O)c2cccc(C(=O)NC3CCN(c4ncnc5[nH]cnc45)CC3)c2)cc1; target = rep nsp14; setting = 0.01221 µM; endpoint = inhibition; result = -1.64%
SMILES = NC(=O)C1=C(O)C[C@@H]2C[C@@H]3Cc4cccc(O)c4C(=O)C3=C(O)[C@]2(O)C1=O; target = rep papain-like protease; setting = concentration not given, C111S mutant; how to read = reference: positive control; endpoint = activity; result = 13.5%
SMILES = Nc1ncnc2c1ncn2[C@@H]1O[C@H](CSCC[C@H](N)C(=O)O)[C@@H](O)[C@H]1O; target = rep nsp14; test = thermal shift; setting = 250 µM; endpoint = ΔTm; result = 9.7 °C
SMILES = CC(C)(C)c1ccc(Oc2ccc(N)cn2)cc1; target = rep papain-like protease; setting = concentration not given, C111S mutant; how to read = reference: positive control; endpoint = activity; result = 15.7%
SMILES = Cc1cc([N+](=O)[O-])c(NS(=O)(=O)c2cccc(C(=O)O)c2)cc1-c1cccnc1; target = rep nsp12 RdRp; test = binding, biolayer interferometry; setting = concentration not given; endpoint = BLI response; result = 0.01 nm

For quick reference, copied from above (single results of other studies):
SMILES = NC(=O)C1=C(O)C[C@@H]2C[C@@H]3Cc4cccc(O)c4C(=O)C3=C(O)[C@]2(O)C1=O; target = rep papain-like protease; setting = concentration not given, C111S mutant; how to read = reference: positive control; endpoint = activity; result = 13.5%
SMILES = Cc1cc([N+](=O)[O-])c(NS(=O)(=O)c2cccc(C(=O)O)c2)cc1-c1cccnc1; target = rep nsp12 RdRp; test = binding, biolayer interferometry; setting = concentration not given; endpoint = BLI response; result = 0.01 nm
